# Measurements from different studies.
# Every numbered part comes from another study and shows a few of its results, in no order.
# Sequence of UniProt Q9BUB5 (whole entry, looked up): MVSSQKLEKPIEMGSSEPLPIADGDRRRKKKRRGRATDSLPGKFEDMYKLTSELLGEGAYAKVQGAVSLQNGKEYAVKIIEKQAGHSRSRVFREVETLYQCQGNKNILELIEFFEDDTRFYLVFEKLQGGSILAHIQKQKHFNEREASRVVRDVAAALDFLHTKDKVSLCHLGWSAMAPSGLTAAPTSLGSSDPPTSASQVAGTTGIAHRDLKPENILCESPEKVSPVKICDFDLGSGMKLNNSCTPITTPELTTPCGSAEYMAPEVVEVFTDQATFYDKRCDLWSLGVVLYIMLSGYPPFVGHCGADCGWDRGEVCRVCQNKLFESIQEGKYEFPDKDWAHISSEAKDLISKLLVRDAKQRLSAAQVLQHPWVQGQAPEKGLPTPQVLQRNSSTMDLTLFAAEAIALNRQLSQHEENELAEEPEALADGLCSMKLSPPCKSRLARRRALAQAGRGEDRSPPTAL
# Sequence of UniProt P19525 (whole entry, looked up): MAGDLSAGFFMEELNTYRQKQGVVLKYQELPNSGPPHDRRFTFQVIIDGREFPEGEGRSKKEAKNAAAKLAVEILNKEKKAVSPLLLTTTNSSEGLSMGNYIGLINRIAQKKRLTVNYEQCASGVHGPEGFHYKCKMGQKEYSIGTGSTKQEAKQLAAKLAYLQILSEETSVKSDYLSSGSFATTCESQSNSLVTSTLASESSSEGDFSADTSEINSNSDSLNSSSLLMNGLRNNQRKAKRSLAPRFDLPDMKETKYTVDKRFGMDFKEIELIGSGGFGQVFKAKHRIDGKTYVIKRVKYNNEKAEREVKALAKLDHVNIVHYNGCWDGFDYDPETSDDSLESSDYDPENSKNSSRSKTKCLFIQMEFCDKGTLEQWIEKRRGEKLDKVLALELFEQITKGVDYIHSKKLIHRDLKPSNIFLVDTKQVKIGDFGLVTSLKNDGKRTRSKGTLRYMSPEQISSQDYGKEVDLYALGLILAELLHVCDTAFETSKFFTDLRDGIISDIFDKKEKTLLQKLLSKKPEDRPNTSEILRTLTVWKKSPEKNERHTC
# Sequence of UniProt P00519 (whole entry, looked up): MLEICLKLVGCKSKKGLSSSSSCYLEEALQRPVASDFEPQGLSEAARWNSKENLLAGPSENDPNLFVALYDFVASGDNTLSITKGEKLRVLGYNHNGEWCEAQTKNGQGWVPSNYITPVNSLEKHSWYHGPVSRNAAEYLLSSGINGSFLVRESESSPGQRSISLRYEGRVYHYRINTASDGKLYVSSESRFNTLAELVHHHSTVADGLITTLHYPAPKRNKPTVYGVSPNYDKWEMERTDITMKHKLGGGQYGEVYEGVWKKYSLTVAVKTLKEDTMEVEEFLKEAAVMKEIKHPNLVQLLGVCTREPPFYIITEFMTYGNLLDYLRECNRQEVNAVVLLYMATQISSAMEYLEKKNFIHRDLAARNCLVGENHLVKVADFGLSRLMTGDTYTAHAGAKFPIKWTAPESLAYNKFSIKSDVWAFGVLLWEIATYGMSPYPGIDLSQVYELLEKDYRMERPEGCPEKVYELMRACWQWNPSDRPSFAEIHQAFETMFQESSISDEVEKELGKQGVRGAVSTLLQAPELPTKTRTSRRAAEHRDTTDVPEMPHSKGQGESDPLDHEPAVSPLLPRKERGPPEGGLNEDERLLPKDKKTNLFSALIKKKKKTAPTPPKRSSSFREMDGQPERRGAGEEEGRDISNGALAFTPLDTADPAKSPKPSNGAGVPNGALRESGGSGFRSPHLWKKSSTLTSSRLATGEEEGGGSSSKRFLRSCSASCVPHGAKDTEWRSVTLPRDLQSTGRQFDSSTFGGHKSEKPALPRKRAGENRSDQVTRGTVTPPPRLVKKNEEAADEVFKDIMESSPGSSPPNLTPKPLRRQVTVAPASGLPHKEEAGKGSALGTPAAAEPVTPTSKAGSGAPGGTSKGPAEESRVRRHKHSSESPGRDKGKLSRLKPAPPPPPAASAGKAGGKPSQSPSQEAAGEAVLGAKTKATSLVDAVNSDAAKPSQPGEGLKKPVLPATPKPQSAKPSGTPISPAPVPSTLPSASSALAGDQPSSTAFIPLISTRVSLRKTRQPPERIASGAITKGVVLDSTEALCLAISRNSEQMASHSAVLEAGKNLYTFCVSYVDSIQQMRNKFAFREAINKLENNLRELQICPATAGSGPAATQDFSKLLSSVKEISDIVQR
# Sequence of UniProt P09619 (whole entry, looked up): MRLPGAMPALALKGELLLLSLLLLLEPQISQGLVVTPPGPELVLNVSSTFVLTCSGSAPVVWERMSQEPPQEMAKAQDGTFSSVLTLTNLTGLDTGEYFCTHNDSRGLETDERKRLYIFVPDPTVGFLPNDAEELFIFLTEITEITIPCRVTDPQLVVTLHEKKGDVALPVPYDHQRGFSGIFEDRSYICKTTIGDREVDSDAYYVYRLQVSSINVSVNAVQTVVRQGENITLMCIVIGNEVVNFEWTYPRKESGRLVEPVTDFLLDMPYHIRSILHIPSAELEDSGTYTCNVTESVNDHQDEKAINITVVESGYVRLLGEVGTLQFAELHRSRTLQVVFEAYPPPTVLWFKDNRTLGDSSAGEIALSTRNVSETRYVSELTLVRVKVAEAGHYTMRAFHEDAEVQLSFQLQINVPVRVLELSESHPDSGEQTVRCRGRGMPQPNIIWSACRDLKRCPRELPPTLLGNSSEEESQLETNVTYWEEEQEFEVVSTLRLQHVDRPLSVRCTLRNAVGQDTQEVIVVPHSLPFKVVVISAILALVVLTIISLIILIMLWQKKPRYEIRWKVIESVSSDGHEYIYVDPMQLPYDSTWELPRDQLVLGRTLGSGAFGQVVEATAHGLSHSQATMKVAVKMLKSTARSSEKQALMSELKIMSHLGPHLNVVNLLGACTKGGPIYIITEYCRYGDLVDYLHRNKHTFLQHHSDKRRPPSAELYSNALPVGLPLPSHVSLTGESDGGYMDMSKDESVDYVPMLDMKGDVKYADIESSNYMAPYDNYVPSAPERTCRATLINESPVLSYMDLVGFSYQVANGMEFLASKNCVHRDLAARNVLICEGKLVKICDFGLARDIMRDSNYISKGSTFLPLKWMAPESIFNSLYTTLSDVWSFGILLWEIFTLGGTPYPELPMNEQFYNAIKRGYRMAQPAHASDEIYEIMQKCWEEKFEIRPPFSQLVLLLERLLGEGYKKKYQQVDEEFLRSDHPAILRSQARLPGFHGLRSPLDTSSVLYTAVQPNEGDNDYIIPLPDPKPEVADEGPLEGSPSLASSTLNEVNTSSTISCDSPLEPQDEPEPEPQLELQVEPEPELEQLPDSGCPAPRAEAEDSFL
# Sequence of UniProt Q16832 (whole entry, looked up): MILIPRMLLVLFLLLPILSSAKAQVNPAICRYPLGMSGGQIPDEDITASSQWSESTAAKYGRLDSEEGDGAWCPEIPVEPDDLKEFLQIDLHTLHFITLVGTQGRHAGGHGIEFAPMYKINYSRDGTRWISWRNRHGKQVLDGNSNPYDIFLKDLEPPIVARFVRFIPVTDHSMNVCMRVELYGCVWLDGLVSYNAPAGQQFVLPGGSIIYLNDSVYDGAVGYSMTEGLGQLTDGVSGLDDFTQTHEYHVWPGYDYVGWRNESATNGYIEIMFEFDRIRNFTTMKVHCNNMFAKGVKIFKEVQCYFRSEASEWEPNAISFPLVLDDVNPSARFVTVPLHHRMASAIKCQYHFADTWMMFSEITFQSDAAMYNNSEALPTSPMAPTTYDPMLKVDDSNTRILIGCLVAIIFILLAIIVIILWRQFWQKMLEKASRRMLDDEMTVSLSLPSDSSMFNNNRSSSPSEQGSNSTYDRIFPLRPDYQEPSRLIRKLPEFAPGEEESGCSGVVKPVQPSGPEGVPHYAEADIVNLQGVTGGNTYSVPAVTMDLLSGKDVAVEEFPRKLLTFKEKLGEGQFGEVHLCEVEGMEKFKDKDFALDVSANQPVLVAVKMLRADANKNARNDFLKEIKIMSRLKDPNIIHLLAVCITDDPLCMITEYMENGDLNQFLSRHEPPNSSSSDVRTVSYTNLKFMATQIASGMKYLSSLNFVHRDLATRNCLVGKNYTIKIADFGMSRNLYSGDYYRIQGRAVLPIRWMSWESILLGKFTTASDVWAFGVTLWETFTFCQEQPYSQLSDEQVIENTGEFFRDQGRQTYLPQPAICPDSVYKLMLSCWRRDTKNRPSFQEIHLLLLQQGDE

# Block 1
# Target: Eukaryotic initiation factor 4A-I (EIF4A1, Homo sapiens, UniProt P60842)
# Sequence of UniProt P60842 (whole entry, looked up): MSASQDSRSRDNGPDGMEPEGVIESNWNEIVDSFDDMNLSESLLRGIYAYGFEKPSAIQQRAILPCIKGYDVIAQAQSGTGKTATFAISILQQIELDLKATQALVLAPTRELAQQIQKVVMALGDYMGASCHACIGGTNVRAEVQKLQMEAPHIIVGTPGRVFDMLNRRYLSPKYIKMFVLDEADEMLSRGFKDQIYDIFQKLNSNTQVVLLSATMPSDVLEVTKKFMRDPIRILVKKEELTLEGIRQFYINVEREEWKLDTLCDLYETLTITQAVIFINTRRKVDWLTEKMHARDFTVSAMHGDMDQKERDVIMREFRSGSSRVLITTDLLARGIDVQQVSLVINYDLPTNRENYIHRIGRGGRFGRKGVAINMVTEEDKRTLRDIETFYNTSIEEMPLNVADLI
# Read-out: RNA clamping
# Method: fluorescence polarization
# Tested at: concentration not given
# With: FAM-labelled poly r(AG)8 RNA
# Reading: higher = more clamping
SMILES,fluorescence polarization change [mP]
COC(=O)[C@@H]1[C@@H](c2ccccc2)[C@]2(c3ccc(OC)cc3)Oc3cc(OC)cc(OC)c3[C@@]23OC(Cc2ccccc2)=N[C@@]13O,12.3
COc1cc(OC)c2c(c1)O[C@@]1(c3ccc(C#N)cc3)[C@H](c3ccccc3)[C@@H](CN(C)C)[C@@H](O)[C@@]21O,88.5
COC(=O)[C@H]1[C@@H](O)[C@@]2(O)c3c(OC)cc(OCc4ccccc4)cc3O[C@@]2(c2ccc(OC)cc2)[C@@H]1c1ccccc1,17.2
C=CCOc1nc(-c2ccccc2)nc2c1[C@@H](c1ccccc1)[C@]1(c3ccc(OC)cc3)Oc3cc(OC)cc(OC)c3[C@]21O,-2.8
COc1ccc([C@@]23Oc4cc(OC)cc(OC)c4[C@]2(O)[C@H](O)[C@H](C(=O)c2cc(C)c(C)o2)[C@H]3c2ccccc2)cc1,11.5
COc1ccc([C@@]23Oc4cc(OC)cc(OC)c4[C@]2(O)[C@H](O)[C@H](C(=O)N(C)C)[C@H]3c2ccccc2)cc1,48
CCOC(=O)[C@H]1[C@@H](O)[C@@]2(O)c3c(OC)cc(OC)cc3O[C@@]2(c2ccc(OC)cc2)[C@@H]1c1ccc(Br)cc1,6
COc1ccc([C@@]23Oc4cc(OC)cc(OC)c4[C@]2(O)[C@H](O)[C@H](C(=O)c2cc4cccc(OC)c4o2)[C@H]3c2ccccc2)cc1,0.3

# Block 2
# Target: Calcium/calmodulin-dependent protein kinase type II subunit alpha (CAMK2A, Homo sapiens, UniProt Q9UQM7)
# Sequence of UniProt Q9UQM7 (whole entry, looked up): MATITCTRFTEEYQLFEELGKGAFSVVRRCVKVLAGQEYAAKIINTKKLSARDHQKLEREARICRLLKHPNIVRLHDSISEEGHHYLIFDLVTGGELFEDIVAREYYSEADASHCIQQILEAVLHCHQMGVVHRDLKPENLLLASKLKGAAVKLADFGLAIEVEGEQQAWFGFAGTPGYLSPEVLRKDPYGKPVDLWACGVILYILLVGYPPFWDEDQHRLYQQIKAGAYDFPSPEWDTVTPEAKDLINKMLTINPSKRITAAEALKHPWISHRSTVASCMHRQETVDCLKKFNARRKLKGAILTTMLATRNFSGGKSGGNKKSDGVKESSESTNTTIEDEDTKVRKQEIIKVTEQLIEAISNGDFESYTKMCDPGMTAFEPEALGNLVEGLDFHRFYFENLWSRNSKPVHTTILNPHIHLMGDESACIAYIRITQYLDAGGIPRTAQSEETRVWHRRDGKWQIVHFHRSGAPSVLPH
# Read-out: enzyme activity
# Action: inhibitor
# Tested at: 10 µM
SMILES,inhibition [%]
N#Cc1cc(-c2n[nH]c(-c3ccncc3)n2)ccn1,1
Cc1cc(-n2c(=O)[nH]c(=O)n(C)c2=O)ccc1Oc1ccc(SC(F)(F)F)cc1,-9
O=c1ccc2cc3ccoc3cc2o1,7
CCCCCCCCCCCCCCCc1cc(O)cc(O)c1,-3
COc1cc(C(=O)NS(=O)(=O)c2ccccc2C)ccc1Cc1cn(C)c2ccc(NC(=O)OC3CCCC3)cc12,-3
N/C(=N\C(=O)c1nc(Cl)c(N)nc1N)NCc1ccccc1,2
CCCCc1nc(C)c(CC(=S)N(C)C)c(=O)n1Cc1ccc(-c2ccccc2-c2nnn[nH]2)cc1,-13
CN(C)CCc1c[nH]c2ccc(Cn3cncn3)cc12,2
CC(CCC(=O)O)CC(=O)O (centres unmarked),-7
COc1ccc(-c2oc3c(CC=C(C)C)c(O)cc(O)c3c(=O)c2O)cc1,-2
C[C@]12CC[C@@H]3c4ccc(O)cc4CC[C@H]3[C@@H]1CCC2=O,5
CC(/C=C/C(=O)NO)=C\[C@@H](C)C(=O)c1ccc(N(C)C)cc1,14
C[C@@H]1O[C@@H](Oc2cc(O)c3c(=O)c(O)c(-c4ccc(O)cc4)oc3c2O)[C@H](O)[C@H](O)[C@H]1O,17

# Block 3
# SMILES: CC1=C(C#N)[C@@H](c2ccc3[nH]nc(C)c3c2)C(C#N)=C(c2ccc(Cl)cc2)N1
# Read-out: cell-free assay
# Method: competition with immobilised ligand
# Tested at: 1 µM
target,remaining binding
"MAP kinase-activated protein kinase 2 (MAPKAPK2, Homo sapiens, UniProt P49137)",100%
"Cyclin-G-associated kinase (GAK, Homo sapiens, UniProt O14976)",100%
"Epidermal growth factor receptor (EGFR, Homo sapiens, UniProt P00533, del747-752/P753S)",79.5%
"Tyrosine-protein kinase ABL1, phosphorylated (ABL1, Homo sapiens, UniProt P00519)",82.9%
"Insulin receptor-related protein (INSRR, Homo sapiens, UniProt P14616)",100%
"Leukocyte tyrosine kinase receptor (LTK, Homo sapiens, UniProt P29376)",100%
"Interferon-induced, double-stranded RNA-activated protein kinase (EIF2AK2, Homo sapiens, UniProt P19525)",74.1%
"Platelet-derived growth factor receptor beta (PDGFRB, Homo sapiens, UniProt P09619)",100%
"Discoidin domain-containing receptor 2 (DDR2, Homo sapiens, UniProt Q16832)",99.4%
"MAP kinase-interacting serine/threonine-protein kinase 1 (MKNK1, Homo sapiens, UniProt Q9BUB5)",100%

# Block 4
# Target: MAP kinase-interacting serine/threonine-protein kinase 1 (MKNK1, Homo sapiens, UniProt Q9BUB5)
# Read-out: enzyme activity
# Action: inhibitor
# Tested at: 0.5 µM
# Relative to: control
SMILES,remaining activity
O=c1cc(-c2cccc3c2Sc2ccccc2S3)oc(N2CCOCC2)c1,99.5%
O=C1c2ccccc2-c2n[nH]c3cccc1c23,97%
N#Cc1c(NC(=O)c2cccc3ccccc23)sc2c1CCCC2,106%
Cc1cn(-c2cc(NC(=O)c3ccc(C)c(Nc4nccc(-c5cccnc5)n4)c3)cc(C(F)(F)F)c2)cn1,102%
COc1cc2ncnc(Nc3ccc(O)c(Br)c3)c2cc1OC,32.7%
Nc1cccc(-c2cc3c(Oc4cccc(O)c4)ncnc3[nH]2)c1,87.6%
CCN(CC)CCNC(=O)c1c(C)[nH]c(/C=C2\C(=O)Nc3ccc(F)cc32)c1C,99.3%
CCN(CC)CCNC(=O)c1c(C)[nH]c(/C=C2\C(=O)Nc3ccc(Cl)cc32)c1C,75.4%
COc1cc2ncnc(Nc3cccc(Cl)c3)c2cc1OC,80.8%
Ic1cccc(CSc2nnc(-c3ccncc3)o2)c1,109%
Cc1cc2ncc(-c3ccccc3)nc2cc1C,80.3%
CN([C@@H](Cc1ccc(OS(=O)(=O)c2cccc3cnccc23)cc1)C(=O)N1CCN(c2ccccc2)CC1)S(=O)(=O)c1cccc2cnccc12,106%
O=C(NC(NC(=S)Nc1ccc(F)c([N+](=O)[O-])c1)C(Cl)(Cl)Cl)C(c1ccccc1)c1ccccc1 (centres unmarked),100%
